Published values pooled from the literature.
Protocols differ between the studies behind these lines. Several values in a cell are separate wells, animals, samples, runs or records.
Cell line: HeLa

`O=C1NCC(COc2cccc3c(NCc4ccsc4)nc(Cl)nc23)O1` (stereo not shown) gave a GFP/RFP ratio of 3.38 (splicing reporter, item: GLA; 10 µM, 18 h).
With `CCN(C(=O)c1cc(F)ccc1Oc1nncnc1N1CCC2(C1)CN([C@H](CCCN(C)CCOC)C(C)C)C2)C(C)C` the GI50 was greater than 10 µM (cell growth or viability; 72 h).
For `COc1ccc(COC[C@](O)(CNCc2ccc(F)cc2)[C@@H]2CC[C@@H](C)C[C@H]2OCc2ccc(OC)cc2)cc1`, the inhibition was 97.2% (cell growth or viability, MTT; 10 µM, 72 h).
`N#CSCCCCCCOc1ccc2c(-c3ccccc3)cc(=O)oc2c1` gave a GI50 of 31 µM (cell growth or viability, SRB).
`COc1cccc2c1cc1c3c(cc4c(c32)OCO4)[C@@H]2c3c4c5c(cc6c(c5c5cccc(OC)c35)OCO6)CCN4[C@@H]2N1C` (racemic) gave an inhibition of less than 50% (cytotoxicity, MTT; 50 µg/mL, 48 h).
With `O=C1NCC(COc2cccc3c(NCc4ccco4)cc(Cl)nc23)O1` (stereo not shown) the GFP/RFP ratio was 4.51 (splicing reporter, item: GLA; 10 µM, 18 h).
For `CCC(=CCc1c(O)cc2c(c1O)C(=O)CC(c1c(O)cccc1OC)O2)CC` (stereo not shown), the inhibition was 40.9% (cell growth or viability, MTT; 50 µM, 48 h).
`CC(=O)N[C@@H](CC(C)C)C(=O)N[C@H]1CSSC[C@@H](C(=O)N[C@@H](CCCNC(=N)N)C(N)=O)NC(=O)[C@H](CC(C)C)NC(=O)[C@H](CCCNC(=N)N)NC(=O)[C@H](CCCNC(=N)N)NC(=O)[C@H](CC(C)C)NC(=O)[C@H](CC(C)C)NC(=O)[C@H](CCCNC(=N)N)NC(=O)[C@@H](NC(=O)[C@H](CC(C)C)NC(C)=O)CSSC[C@@H](C(=O)N[C@@H](CCCNC(=N)N)C(N)=O)NC(=O)[C@H](CC(C)C)NC(=O)[C@H](CCCNC(=N)N)NC(=O)[C@H](CCCNC(=N)N)NC(=O)[C@H](CC(C)C)NC(=O)[C@H](CC(C)C)NC(=O)[C@H](CCCNC(=N)N)NC1=O` has an EC50 of 0.0617 µM (cell penetration, flow cytometry; 3 h).
With `CCCCCCc1cccc([C@H](O)C[C@H](CO)NC(=O)CCCCCOc2ccc3ccccc3c2)c1` the ceramide level was 1890 pmol/sample and 1950 pmol/sample and 1200 pmol/sample (CERT activity, HPLC-MS/MS lipidomics, item: ceramide 22; 1 µM, 24 h, not cell-number normalised).
The IC50 of `Cc1c(C)c2cccnc2c2ncccc12.Cc1ccc2c(Cl)cc(Cl)c([O-])c2n1.Cc1ccc2c(Cl)cc(Cl)c([O-])c2n1.[Co+2]` is reported as 0.59 µM (cell growth or viability, MTT; 48 h).
`COc1cccc(CNC[C@](O)(COCc2ccccc2)[C@@H]2CC[C@@H](C)C[C@H]2OCc2ccccc2)c1` gave an inhibition of 99.2% (cell growth or viability, MTT; 30 µM, 72 h).
With `Clc1cc(NCc2ccco2)c2cccc(OCC3COCCO3)c2n1` (stereo not shown) the GFP/RFP ratio was 3.5 (splicing reporter, item: GLA; 10 µM, 18 h).
With `CCC(=CCc1c(O)cc2c(c1O)C(=O)CC(c1ccc(OC)c(O)c1)O2)CC` (stereo not shown) the inhibition was 33.8% (cell growth or viability, MTT; 12.5 µM, 48 h).
The inhibition of `COc1ccccc1CNC[C@@](O)(COCc1ccccc1)[C@@H]1CC[C@@H](C)C[C@H]1OCc1ccccc1` is reported as 95.6% (cell growth or viability, MTT; 10 µM, 72 h).
The inhibition of `CCC(=CCc1c(O)cc2c(c1O)C(=O)CC(c1ccc(O)c(OC)c1)O2)CC` (stereo not shown) is reported as 78.5% (cell growth or viability, MTT; 25 µM, 48 h).
`C[C@@H]1CC[C@@H]([C@@](O)(CNCc2ccccc2F)COCc2ccccc2)[C@H](OCc2ccccc2)C1` gave an inhibition of 83% (cell growth or viability, MTT; 10 µM, 72 h).
With `CCCCCCCCCCCC(=O)N[C@@H](CO)C[C@@H](O)c1cccc(CCCCCC)c1` the ceramide level was 13500 pmol/sample and 15500 pmol/sample and 12100 pmol/sample (CERT activity, HPLC-MS/MS lipidomics, item: ceramide 24; 1 µM, 24 h, not cell-number normalised).
`C[C@@H]1CC[C@@H]([C@@](O)(COCc2ccccc2)Cn2cnc3ccccc32)[C@H](OCc2ccccc2)C1` has an inhibition of 99.1% (cell growth or viability, MTT; 30 µM, 72 h).
`CCC(=CCc1c(O)cc2c(c1O)C(=O)CC(c1cc(OC)ccc1O)O2)CC` (stereo not shown) has an inhibition of 26.5% (cell growth or viability, MTT; 50 µM, 48 h).
With `Cc1c(COc2cc(OCc3cccc(C#N)c3)c(CNC(CO)(CO)CO)cc2Cl)cccc1-c1cccc(OCCCCCCC(=O)NO)c1` the inhibition was 54.6% (cell growth or viability, CCK-8; 10 µM).
The selectivity ratio of `NCCOc1cc(NC(=O)c2cc(Cl)cc(C(=O)Nc3cc(OCCN)c4ccccc4n3)n2)nc2ccccc12` is reported as 1.1 (cell viability, CellTiter-Glo; 72 h; reference: IC50 HeLa over WI-38).
The lactosylceramide level of `CC(C)(C)c1ccc([C@H](O)C[C@H](CO)NC(=O)CCCCCOc2ccc3ccccc3c2)cc1` is reported as 5910 pmol/sample and 3180 pmol/sample and 6200 pmol/sample (CERT activity, HPLC-MS/MS lipidomics, item: lactosylceramide 24:1; 1 µM, 24 h, not cell-number normalised).
With `CCC(=CCc1c(O)cc2c(c1O)C(=O)CC(c1ccc(OC)cc1O)O2)CC` (stereo not shown) the inhibition was 41.6% (cell growth or viability, MTT; 12.5 µM, 48 h).
With `C[C@@H]1CC[C@@H]([C@@](O)(CNCc2ccc(F)cc2)COCc2ccc(F)cc2)[C@H](OCc2ccc(F)cc2)C1` the inhibition was 94.5% (cell growth or viability, MTT; 30 µM, 72 h).
With `CCC(=CCc1c(O)cc2c(c1O)C(=O)CC(c1cccc(OC)c1O)O2)CC` (stereo not shown) the inhibition was 0.006% (cell growth or viability, MTT; 0.781 µM, 48 h).
With `C[C@@H]1CC[C@@H]([C@](O)(CNCc2ccc(F)cc2)COCc2ccccc2)[C@H](OCc2ccccc2)C1` the inhibition was 98.9% (cell growth or viability, MTT; 30 µM, 72 h).
With `C=CCc1c(O)cc2c(c1O)C(=O)CC(c1ccc(O)cc1)O2` (stereo not shown) the inhibition was 1.47% (cell growth or viability, MTT; 0.781 µM, 48 h).
`CCCCCCCCCCCCNC(=S)NCCCC[C@H](NS(C)(=O)=O)C(=O)N[C@H](C)C(=O)N[C@@H](CCCNC(=N)N)C(N)=O` has an EC50 of 23.6 to 40.8 µM (cell growth or viability, MTT; 72 h).
`CC[C@H](C)n1cc(C)c2c(C(=O)NCc3c(C)cc(C)[nH]c3=O)cc(-c3ccc(N4CCNCC4)nc3)cc21` has an EC50 of 0.33 µM (histone methylation reduction, AlphaLISA, item: H3K27me3; 72 h).
With `CCCCCCc1cccc([C@H](O)C[C@H](CO)NC(=O)CCCCCCCCCCBr)c1` the sphingomyelin level was 4410 pmol/sample and 3100 pmol/sample and 4590 pmol/sample (CERT activity, HPLC-MS/MS lipidomics, item: sphingomyelin 20; 1 µM, 24 h, not cell-number normalised).
For `O=[C]=[Mn-2]12(=[C]=O)(=[C]=O)[O]c3cc4c(cc3=[N+]1CCc1ccccc1)[O][Mn-2](=[C]=O)(=[C]=O)(=[C]=O)([N+]=4CCc1ccccc1)[n+]1ccc(cc1)C(=O)Oc1ccccc1OC(=O)c1cc[n+]2cc1`, the viability reduction was 55% (MTT; 50 µM, 48 h, photolysed compound).
`CCC(=CCc1c(O)cc2c(c1O)C(=O)CC(c1cccc(O)c1)O2)CC` (stereo not shown) has an inhibition of 6.73% (cell growth or viability, MTT; 1.563 µM, 48 h).
The viability reduction of `O=[C]=[Mn-2]12(=[C]=O)(=[C]=O)[O]c3cc4c(cc3=[N+]1CCc1ccccc1)[O][Mn-2](=[C]=O)(=[C]=O)(=[C]=O)([N+]=4CCc1ccccc1)[n+]1ccc(cc1)C(=O)OCCOC(=O)c1cc[n+]2cc1` is reported as 61% (MTT; 50 µM, 48 h, photolysed compound).
For `CCCCCCCCCCCCNC(=S)NCCCC[C@H](NC(=O)OCc1ccccc1)C(=O)N[C@@H](Cc1c[nH]c2ccccc12)C(=O)NC(C)C`, the EC50 was 15.6 to 19.2 µM (cell growth or viability, MTT; 72 h).
For `CCCCCCCCCCCC(=O)N[C@H](CO)C[C@@H](O)c1ccccc1`, “sphingomyelin C16 amount” read 725000 pmol and 811000 pmol and 816000 pmol (cellular CERT activity, HPLC-MS/MS lipidomics; 1 µM, 24 h).
For `C[C@@H]1CC[C@@H]([C@](O)(CNCc2cccc(F)c2)COCc2ccccc2)[C@H](OCc2ccccc2)C1`, the inhibition was 96.7% (cell growth or viability, MTT; 10 µM, 72 h).
The inhibition of `O=C(/C=C/c1ccccc1)Nc1cc(-c2ccnc(N3CCC(CO)CC3)c2)ccn1` is reported as 76.4% (cell growth or viability, MTT; 5 µM).

Some of these lines once more:
`CC(=O)N[C@@H](CC(C)C)C(=O)N[C@H]1CSSC[C@@H](C(=O)N[C@@H](CCCNC(=N)N)C(N)=O)NC(=O)[C@H](CC(C)C)NC(=O)[C@H](CCCNC(=N)N)NC(=O)[C@H](CCCNC(=N)N)NC(=O)[C@H](CC(C)C)NC(=O)[C@H](CC(C)C)NC(=O)[C@H](CCCNC(=N)N)NC(=O)[C@@H](NC(=O)[C@H](CC(C)C)NC(C)=O)CSSC[C@@H](C(=O)N[C@@H](CCCNC(=N)N)C(N)=O)NC(=O)[C@H](CC(C)C)NC(=O)[C@H](CCCNC(=N)N)NC(=O)[C@H](CCCNC(=N)N)NC(=O)[C@H](CC(C)C)NC(=O)[C@H](CC(C)C)NC(=O)[C@H](CCCNC(=N)N)NC1=O` has an EC50 of 0.0617 µM (cell penetration, flow cytometry; 3 h).
With `CCCCCCc1cccc([C@H](O)C[C@H](CO)NC(=O)CCCCCOc2ccc3ccccc3c2)c1` the ceramide level was 1890 pmol/sample and 1950 pmol/sample and 1200 pmol/sample (CERT activity, HPLC-MS/MS lipidomics, item: ceramide 22; 1 µM, 24 h, not cell-number normalised).
The IC50 of `Cc1c(C)c2cccnc2c2ncccc12.Cc1ccc2c(Cl)cc(Cl)c([O-])c2n1.Cc1ccc2c(Cl)cc(Cl)c([O-])c2n1.[Co+2]` is reported as 0.59 µM (cell growth or viability, MTT; 48 h).
`COc1cccc(CNC[C@](O)(COCc2ccccc2)[C@@H]2CC[C@@H](C)C[C@H]2OCc2ccccc2)c1` gave an inhibition of 99.2% (cell growth or viability, MTT; 30 µM, 72 h).
With `Clc1cc(NCc2ccco2)c2cccc(OCC3COCCO3)c2n1` (stereo not shown) the GFP/RFP ratio was 3.5 (splicing reporter, item: GLA; 10 µM, 18 h).
